# Measurements pooled from the literature.
# ± marks the error that the study gave.
# BRAF: Serine/threonine-protein kinase B-raf (BRAF, Homo sapiens, UniProt P15056)
# Chain of UniProt P15056 (whole entry, unmodified, looked up): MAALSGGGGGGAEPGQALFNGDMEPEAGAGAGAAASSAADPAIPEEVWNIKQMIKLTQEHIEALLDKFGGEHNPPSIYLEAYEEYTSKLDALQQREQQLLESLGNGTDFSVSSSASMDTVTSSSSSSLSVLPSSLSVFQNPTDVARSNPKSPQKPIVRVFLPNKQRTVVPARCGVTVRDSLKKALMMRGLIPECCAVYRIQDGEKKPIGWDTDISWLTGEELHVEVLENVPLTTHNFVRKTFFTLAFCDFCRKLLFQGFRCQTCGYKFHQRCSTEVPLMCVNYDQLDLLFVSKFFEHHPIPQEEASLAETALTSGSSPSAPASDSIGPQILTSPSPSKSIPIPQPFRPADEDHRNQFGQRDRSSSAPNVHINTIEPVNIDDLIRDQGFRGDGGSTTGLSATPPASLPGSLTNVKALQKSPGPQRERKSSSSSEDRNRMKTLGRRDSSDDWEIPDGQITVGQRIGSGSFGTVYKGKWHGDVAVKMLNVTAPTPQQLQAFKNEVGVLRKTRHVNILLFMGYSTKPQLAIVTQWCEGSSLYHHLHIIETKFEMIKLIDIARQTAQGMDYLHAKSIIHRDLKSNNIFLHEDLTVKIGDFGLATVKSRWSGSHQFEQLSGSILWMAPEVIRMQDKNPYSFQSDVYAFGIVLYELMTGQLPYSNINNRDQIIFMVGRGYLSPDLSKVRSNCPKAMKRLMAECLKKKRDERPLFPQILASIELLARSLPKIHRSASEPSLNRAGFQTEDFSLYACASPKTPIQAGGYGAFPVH
SMILES,target,assay,system,setting,scale,endpoint,result
c1cnc2ccc(Nc3nc(NC4CC4)c4nc[nH]c4n3)cc2c1,BRAF,"kinase activity, inhibitor, SelectScreen kinase profiling",,1 µM,baseline: control,remaining activity,98%
CCN1CCN(Cc2ccc(NC(=O)c3ccc(C)c(Oc4ccnc5[nH]ccc45)c3)cc2C(F)(F)F)CC1,"BRAF (Homo sapiens, UniProt P15056, V600E)",,A-375,0.05 µM,,inhibition,-20.4%
COc1cc(-c2cncc3c2CN(C)Cc2cc(N4CCNCC4)ccc2-3)cc(OC)c1OC,"BRAF (Homo sapiens, UniProt P15056, V600E)",kinase activity,,"1 µM, with: ATP 10 µM",baseline: DMSO control,remaining activity,92%
CC/C(=N\NC(=O)NCc1cccc(O)c1)c1ccc(O)c(C)c1O,"BRAF (Homo sapiens, UniProt P15056, V600E)","kinase activity, inhibitor",,0.1 µM,,inhibition,0%
C=CC(=O)N1CCC[C@@H](n2nc(-c3ccc(Oc4ccccc4)cc3)c3c(N)ncnc32)C1,BRAF,,,10 µM,,remaining activity,93.5%
CNc1cc(Oc2cc(C(=O)Nc3cc(N4CCN(C)CC4)cc(C(F)(F)F)c3)ccc2C)ncn1,"BRAF (Homo sapiens, UniProt P15056, V600E)",,Huh-7,1 µM,,inhibition,-99.6%
COc1ccc(-c2ccc3c(N4CCOC[C@@H]4C)nc(N4CCOC[C@@H]4C)nc3n2)cc1COC(=O)CCOCCOCCOCCONC(=O)c1ccc(F)c(F)c1Nc1ccc(I)cc1F,"BRAF (Homo sapiens, UniProt P15056, V600E)","kinase activity, inhibitor",,2.5 µM,,inhibition,inhibited
C=CC(=O)N1CCC([C@@H]2CCNc3c(C(N)=O)c(-c4ccc(Oc5ccccc5)cc4)nn32)CC1,BRAF,"kinase activity, inhibitor, HotSpot radiometric",,"100 nM, with: ATP 10 µM",,remaining activity,72.4 ± 5.2%
C#Cc1cnc(Nc2ccnc(CO)c2)nc1Nc1ccccc1S(C)(=O)=NC#N (stereo not shown),"BRAF (Homo sapiens, UniProt P15056, V600E)","kinase activity, kinase selectivity panel",,1 µM,baseline: control,remaining activity,92%
Cc1cc(O)c(-c2ccc([C@@H](C)CN(C)C)cc2)c2c1[nH]c(=O)c1sccc12,"Serine/threonine-protein kinase B-raf, V600E (BRAF, Homo sapiens, UniProt P15056)","inhibitor, KiNativ probe labelling",cell lysate,0.1 µM,,inhibition,-25.6%
[2H]c1cc(C)c(NC(=O)c2cnc(Nc3cc(N4CCCCC4)nc(C)n3)s2)c(Cl)c1,BRAF,,,0.01 µM,,inhibition,< 30%
COc1ccc(F)cc1C(=O)NCc1ccc(-c2nn([C@@H](C)C(F)(F)F)c(N)c2C(N)=O)cc1,BRAF,,,"1000 nM, with: ATP at Km",,remaining activity,103 ± 1.4%
C=CC(=O)N1CCC(COCC(=O)N2CCN(c3nc(-c4cnc(N)nc4C(F)F)nc(N4CCOC[C@@H]4C)n3)CC2)CC1,BRAF,KINOMEscan,,1 µM,,remaining binding,90%

# For quick reference, copied from above:
SMILES,target,assay,system,setting,scale,endpoint,result
CC/C(=N\NC(=O)NCc1cccc(O)c1)c1ccc(O)c(C)c1O,"BRAF (Homo sapiens, UniProt P15056, V600E)","kinase activity, inhibitor",,0.1 µM,,inhibition,0%
